Results gathered from unrelated publications.
Lines come from different studies, so protocols differ. Several values in a cell are separate wells, animals, samples, runs or records. ≈ marks a conversion by molar mass, not a printed value.

| Structure (SMILES) | organism | test | test system | setting | scale | quantity | result |
| --- | --- | --- | --- | --- | --- | --- | --- |
| CCCCNCCO.O=C(O)C(Cl)Cl | Eleusine indica |  |  | 15 mg/mL, 21 days, pre-emergence, greenhouse |  | herbicidal inhibition | 0% |
| O=C(Oc1cc(OC(=O)c2cc(O)c(O)c(O)c2)c2ccccc2c1)c1cc(O)c(O)c(O)c1 | herpes simplex virus 2 | transmission electron microscopy | extracellular virus particles | 100 µM, 1 h, 37 °C |  | viral envelope disintegration | 71.4% |
| CCCCCCCCCC(=O)N[C@@H](Cc1c[nH]c2ccccc12)C(=O)N[C@H](CC(N)=O)C(=O)N[C@@H](CC(=O)O)C(=O)N[C@@H]1C(=O)NCC(=O)N[C@@H](CCCNC(=O)OC2/C=C/CCCCC2)C(=O)N[C@@H](CC(=O)O)C(=O)N[C@H](C)C(=O)N[C@@H](CC(=O)O)C(=O)NCC(=O)N[C@H](CO)C(=O)N[C@@H]([C@H](C)CC(=O)O)C(=O)N[C@@H](CC(=O)c2ccccc2N)C(=O)O[C@@H]1C (some centres unmarked) | Staphylococcus aureus | planktonic bacterial growth, isothermal microcalorimetry | MRSA | 3.0 µg/mL, 24 h, 37 °C, with: TAG hydrogel |  | peak heat flow time | 0 h |
| Cc1ccnc(-c2cc(C(=O)NCCCCCC(=O)N[C@@H](CCCNC(=N)N)C(=O)N[C@@H](CCCNC(=N)N)C(=O)N[C@@H](Cc3c[nH]c4ccccc34)C(=O)N[C@@H](Cc3c[nH]c4ccccc34)C(=O)N[C@@H](CCCNC(=N)N)C(=O)N[C@@H](Cc3c[nH]c4ccccc34)C(=O)N[C@@H](Cc3c[nH]c4ccccc34)C(=O)N[C@@H](CCCNC(=N)N)C(N)=O)ccn2)c1 | Acinetobacter baumannii | colony counting | resistant | concentration not given, light irradiation | reference: non-irradiated | log10 CFU reduction | no effect |
| O=C(Nc1ccc([N+](=O)[O-])cc1Cl)c1cc(Cl)ccc1O | human adenovirus C5 | progeny virus production | A549 | 72 h |  | EC50 | 1000 nM |
| CNCc1ccc2c(c1)C[C@H](CNC(=N)N)[C@H]2NC(=O)C(=O)Nc1ccc(Cl)c(F)c1 | HIV-1 | viral infection | TZM-bl, CRF02_AG 235-47 Env pseudovirus |  |  | IC80 | 37200 nM |
| C[N+](C)(C)CCO.O=C([O-])C(Cl)Cl | Eleusine indica |  |  | 15 mg/mL, 21 days, pre-emergence, greenhouse |  | herbicidal inhibition | 0% |
| O=C1C(NCCc2ccc(O)c(Br)c2)=CC2=NCCc3c[nH]c1c32 | Babesia divergens | parasite growth, SYBR Green |  | 60 h, blood stage |  | IC50 | 435 nM |
| C=C(NC(=O)c1csc(-c2nc3c(cc2O)-c2nc(cs2)C(=O)NC(C(C)O)C(=O)NC(=C(C)OC)c2nc(cs2)C(=O)NC2c4nc(cs4)C(=O)NC(COC(=O)c4c5c6c(cccc6n4O)COC(=O)C(OC4CC(C)(O)C(N(C)C)C(C)O4)C2OC5)c2nc-3cs2)n1)C(N)=O (centres unmarked) | Streptococcus pyogenes |  | 10 isolates | pH 7.0 |  | MIC50 | 7.8 ng/mL (≈ 5.43 nM) |
| c1ccc(CSc2nc3ccccc3cc2CNCCC2CCN(C3CCCC3)CC2)cc1 | Acinetobacter baumannii | NADH-driven proton pumping, ACMA quenching | inverted membrane vesicles | 32 µg/mL |  | inhibition | 80% |
| C=C[C@]1(C)C[C@@H](OC(=O)CSc2ccc(NC(=O)c3ccco3)cc2)[C@]2(C)[C@H](C)CC[C@]3(CCC(=O)[C@H]32)[C@@H](C)[C@@H]1O | Mycoplasma gallisepticum |  | infected chickens, lung | intramuscular, 10 mg/kg daily x3, 72 h | reference: 0 h | lung mycoplasma load reduction | 0.687 log10 CFU/mL and 1.78 log10 CFU/mL and 1.15 log10 CFU/mL and 1.65 log10 CFU/mL and 1.16 log10 CFU/mL and 1.17 log10 CFU/mL and 1.56 log10 CFU/mL and 1.06 log10 CFU/mL |

A few entries again:
| Structure (SMILES) | organism | test | test system | setting | scale | quantity | result |
| --- | --- | --- | --- | --- | --- | --- | --- |
| CCCCCCCCCC(=O)N[C@@H](Cc1c[nH]c2ccccc12)C(=O)N[C@H](CC(N)=O)C(=O)N[C@@H](CC(=O)O)C(=O)N[C@@H]1C(=O)NCC(=O)N[C@@H](CCCNC(=O)OC2/C=C/CCCCC2)C(=O)N[C@@H](CC(=O)O)C(=O)N[C@H](C)C(=O)N[C@@H](CC(=O)O)C(=O)NCC(=O)N[C@H](CO)C(=O)N[C@@H]([C@H](C)CC(=O)O)C(=O)N[C@@H](CC(=O)c2ccccc2N)C(=O)O[C@@H]1C (some centres unmarked) | Staphylococcus aureus | planktonic bacterial growth, isothermal microcalorimetry | MRSA | 3.0 µg/mL, 24 h, 37 °C, with: TAG hydrogel |  | peak heat flow time | 0 h |
